Assay results of several laboratories.
Each line is one published result; not all experiments were run side by side. Several values in a cell are separate wells, animals, samples, runs or records. ± marks the error that the study gave.
rep main protease: Replicase polyprotein 1ab, main protease (rep, Severe acute respiratory syndrome coronavirus 2, UniProt P0DTD1)
Spike glycoprotein: Spike glycoprotein (Severe acute respiratory syndrome coronavirus 2, UniProt P0DTC2)
Chain of UniProt Q7BQ98 (whole entry, looked up): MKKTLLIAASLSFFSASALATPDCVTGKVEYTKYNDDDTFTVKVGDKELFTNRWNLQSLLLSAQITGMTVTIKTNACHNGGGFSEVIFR

| SMILES | tested on | assay | system | setting | how to read | measurement | value |
| --- | --- | --- | --- | --- | --- | --- | --- |
| O=C(NC[C@@H]1Cc2ccccc2CN1C(=O)[C@@H]1CCCS(=O)(=O)C1)c1cn[nH]c(=O)c1 | rep main protease | enzyme activity, inhibitor | – | 5 µM, mean of runs | – | inhibition | 12% |
| CC(C)(F)C[C@H](N[C@@H](c1ccc(-c2ccc(S(C)(=O)=O)cc2)cc1)C(F)(F)F)C(=O)NC1(C#N)CC1 | rep main protease | reporter gene (mKate2), inhibitor | – | 20 µM | – | inhibition | -0.81% |
| c1ccc(C(NCc2cccnc2)(c2ccccc2)c2ccccc2)cc1 | Kcnq5 (Rattus norvegicus, UniProt F1LY25) | whole-cell patch clamp | rat calyx of Held neurons | 10 µM | – | potentiation | 8 ± 2% |
| NCc1cccnc1 | rep main protease | reporter gene (Gaussia luciferase), inhibitor | – | 20 µM | – | inhibition | -0.868% |
| O=C(/C=C/c1ccc(O)c(O)c1)O[C@H]1[C@H](O)C[C@](O)(C(=O)O)C[C@H]1OC(=O)/C=C/c1ccc(O)c(O)c1 | Spike glycoprotein | binding, biolayer interferometry | – | – | – | kon | 178 M⁻¹ s⁻¹ |
| O=[N+]([O-])c1ccc(OP(=O)(O)O)cc1 | Secreted effector protein (Yersinia pestis, UniProt O68720) | substrate | – | – | – | Km | 600 µM |
| O=c1c(O)c(-c2ccc(O)cc2)oc2cc(O)cc(O)c12 | Spike glycoprotein | binding, BLI | – | – | – | kon | 1590 M⁻¹ s⁻¹ |
| Cc1cc(C(=O)N2[C@@H]3CCC[C@H]2CC(NC(=O)c2cc[nH]c(=O)c2)C3)cc(=O)[nH]1 (stereo partly drawn) | rep main protease | enzyme activity, inhibitor | – | 5 µM, mean of runs | – | inhibition | 13.2% |
| [N-]=[N+]=N[C@@H]1O[C@H](CO)[C@H](O[C@H]2O[C@H](CO)[C@H](O)[C@H](O)[C@H]2O)[C@H](O)[C@H]1O | Shiga toxin subunit B (stxB, Shigella dysenteriae, UniProt Q7BQ98) | – | Escherichia coli | – | – | log IC50 | -2.3 |
| CC[C@H](C)[C@H](NC(=O)[C@H](CC(C)C)NC(=O)[C@H](Cc1c[nH]c2ccccc12)NC(=O)[C@H](CCC(N)=O)NC(=O)[C@@H](NC(=O)[C@H](Cc1ccccc1)NC(=O)[C@H](C)NC(=O)[C@H](CCCCNC(=O)COCCOCCNC(=O)COCCOCCNC(=O)CC[C@H](NC(=O)CCCCCCCCCCCCCCCCCCC(=O)O)C(=O)O)NC(=O)[C@H](CCC(N)=O)NC(=O)[C@H](C)NC(=O)[C@@H](NC(=O)[C@H](CCCCN)NC(=O)[C@H](CC(=O)O)NC(=O)[C@H](CC(C)C)NC(=O)C(C)(C)NC(=O)[C@@H](NC(=O)[C@H](CO)NC(=O)[C@H](Cc1ccc(O)cc1)NC(=O)[C@H](CC(=O)O)NC(=O)[C@H](CO)NC(=O)[C@@H](NC(=O)[C@H](Cc1ccccc1)NC(=O)[C@@H](NC(=O)CNC(=O)[C@H](CCC(=O)O)NC(=O)C(C)(C)NC(=O)[C@@H](N)Cc1ccc(O)cc1)[C@@H](C)O)[C@@H](C)O)[C@@H](C)CC)[C@@H](C)CC)C(C)C)C(=O)N[C@@H](C)C(=O)NCC(=O)NCC(=O)N1CCC[C@H]1C(=O)N[C@@H](CO)C(=O)N[C@@H](CO)C(=O)NCC(=O)N[C@@H](C)C(=O)N1CCC[C@H]1C(=O)N1CCC[C@H]1C(=O)N1CCC[C@H]1C(=O)N[C@@H](CO)C(N)=O | – | item: treatment-emergent application site reaction | healthy subjects | 0.5 mg, multiple ascending dose | – | subjects with adverse event | 16.7% |
| COc1ccc(C[C@H](NC(=O)[C@H](C)NC(=O)CN2CCOCC2)C(=O)N[C@@H](Cc2ccccc2)C(=O)C2(C)CO2)cc1 (stereo in doubt) | rep main protease | reporter gene (mKate2), inhibitor | – | 20 µM | – | inhibition | -1.86% |
| O=C(NC[C@@H]1CC2(CCOCC2)CN1C(=O)C1=Cc2ccccc2OC1)c1cncnc1 | rep main protease | enzyme activity, inhibitor | – | 5 µM, run 1 | – | inhibition | 8.3% |
| O=C(O[C@@H]1Cc2c(O)cc(O)cc2O[C@@H]1c1cc(O)c(O)c(O)c1)c1cc(O)c(O)c(O)c1 | Spike glycoprotein | binding, BLI | – | – | – | kon | 231 M⁻¹ s⁻¹ |
| Cn1cnc(Cn2c(=O)[nH]/c(=N\c3cc4cn(C)nc4cc3Cl)n(Cc3cc(F)c(F)cc3F)c2=O)n1 | – | – | human, mild renal impairment | oral, 375 mg, hypertriglyceridaemia TEAE, Mild severity | – | patients with adverse event | 0% |
| O=C(c1ccc2cccnc2c1)N1CC[C@@H]([C@@H]2CCCN(C(=O)c3cccn4cnnc34)C2)C1 | rep main protease | enzyme activity, inhibitor | – | 5 µM, run 2 | – | inhibition | 10.1% |
| COC(=O)C=Cc1ccccc1 | rep main protease | reporter gene (Gaussia luciferase), inhibitor | – | 20 µM | – | inhibition | 2.8% |
| CNC(=O)[C@@H](NC(=O)[C@H](CC(C)C)[C@H](O)C(=O)NO)C(C)(C)C | Daboia russelii venom proteases (SVMP) | protease activity, inhibitor | KA population | 0.01 µM, added: azocasein substrate | baseline: venom alone | remaining activity | 92% and 91% and 93% |
| Nc1ncnc2c([C@@H]3N[C@H](CO)[C@@H](O)[C@H]3O)c[nH]c12 | Middle East respiratory syndrome-related coronavirus | viral replication | Vero C1008, Jordan N3 | 0.8 µM | – | inhibition | 6% |
